Measured values collected from several papers.
Each line is one published result; not all experiments were run side by side. “And” joins repeats or separate records; there may be more than shown. ± gives the spread as reported.
APP: Amyloid-beta precursor protein (APP, Homo sapiens, UniProt P05067)
APP Aβ40 fibrils: Amyloid-beta precursor protein, Aβ40 fibrils (APP, Homo sapiens, UniProt P05067)

COc1c2c(cc3oc(-c4ccccc4)cc(=O)c13)OC(C)(C)C=C2
IC50 (APP; amyloid aggregation, inhibitor, fluorescence): > 200 µM

CC(=O)N[C@H]1CC(=O)N[C@@H](Cc2ccccc2)C(=O)N[C@@H](CCCNC(=N)N)C(=O)N[C@H](C(=O)N[C@@H](CC(=O)O)C(=O)N[C@H](C(=O)N[C@@H](CCCNC(=N)N)C(=O)N[C@@H](C)C(=O)N[C@@H](CCC(=O)O)C(=O)N[C@@H](CCCNC(=N)N)C(=O)N[C@@H](C)C(=O)N[C@@H](CCC(=O)O)C(N)=O)C(C)C)CNC1=O
Kd (APP Aβ40 fibrils; binding to Aβ40 fibrils, fluorescence polarization; 24 h, pH 7.4, 25 °C, added: 100 µM Aβ40 fibrils): 3.8 µM

CC(C)C[C@H](NC(=O)[C@@H](N)Cc1ccccc1)C(=O)O
Kd (Amyloid-beta precursor protein, amyloid-beta 1-40 Q15A (APP, Homo sapiens, UniProt P05067, Q686A); concentration not given): 126 ± 86.6 µM

CC(=O)N[C@H]1CC(=O)N[C@@H](Cc2ccccc2)C(=O)N[C@@H](CCCNC(=N)N)C(=O)N[C@H](C(=O)N[C@@H](CC(=O)O)C(=O)N[C@H](C(=O)N[C@@H](CCCNC(=N)N)C(=O)N[C@@H](C)C(=O)N[C@@H](CCCNC(=N)N)C(=O)N[C@@H](CCC(=O)O)C(=O)N[C@@H](C)C(=O)N[C@@H](CCC(=O)O)C(N)=O)C(C)C)CNC1=O
Kd (APP Aβ40 fibrils; isothermal titration calorimetry; sodium phosphate buffer; pH 8, 25 °C, peptide titrated into protein): 18.9 µM

O=C(O)c1cc(Cl)cc(NC(=O)C(F)(F)F)c1
Kd (Amyloid-beta precursor protein, amyloid-beta 1-40 oligomers (APP, Homo sapiens, UniProt P05067); binding): 4 µM

CC(=O)N[C@H]1CC(=O)N[C@@H](Cc2ccccc2)C(=O)N[C@@H](CC(=O)O)C(=O)N[C@H](C(=O)N[C@@H](CCCNC(=N)N)C(=O)N[C@H](C(=O)N[C@@H](CCCNC(=N)N)C(=O)N[C@@H](C)C(=O)N[C@@H](CCC(=O)O)C(=O)N[C@@H](CCCNC(=N)N)C(=O)N[C@@H](C)C(=O)N[C@@H](CCC(=O)O)C(N)=O)C(C)C)CNC1=O
Kd (APP Aβ40 fibrils; isothermal titration calorimetry; sodium phosphate buffer; pH 8, 25 °C, peptide titrated into protein): 25.1 µM

CC1(C)C=Cc2c(ccc3c(=O)cc(-c4ccccc4)oc23)O1
IC50 (APP; amyloid aggregation, inhibitor, fluorescence): 169 µM and 170 µM

CC[C@H](C)[C@@H]1NC(=O)CNC(=O)[C@H](CCSC)NC(=O)[C@H](C(C)C)NC(=O)[C@H]([C@@H](C)O)NC(=O)[C@@H]2CSSC[C@@H]3NC(=O)[C@H](Cc4c[nH]cn4)NC(=O)[C@@H](NC(=O)[C@@H](NC(=O)[C@H](Cc4ccccc4)NC(=O)[C@H](C)N)[C@@H](C)O)CSSC[C@@H](C(=O)N[C@@H](CC(C)C)C(=O)O)NC(=O)[C@H](CSSC[C@H](NC(=O)[C@H](CO)NC(=O)[C@H](CCCNC(=N)N)NC(=O)[C@H](CCCNC(=N)N)NC3=O)C(=O)N[C@@H](Cc3ccc(O)cc3)C(=O)N[C@@H](CO)C(=O)N[C@@H]([C@@H](C)O)C(=O)N[C@@H](CCC(=O)O)C(=O)N[C@@H](Cc3ccc(O)cc3)C(=O)N[C@@H](CO)C(=O)N[C@@H](Cc3ccc(O)cc3)C(=O)NCC(=O)N[C@@H]([C@@H](C)O)C(=O)N2)NC(=O)[C@H](Cc2ccccc2)NC(=O)[C@H](CCCNC(=N)N)NC(=O)[C@H](Cc2c[nH]cn2)NC(=O)[C@H](CC(N)=O)NC1=O
Kd (APP; binding, SPR; pH 7.4): 0.356 µM

Ic1ccccc1/N=N/c1ccc2nc(-c3ccccc3)cc(-c3ccccc3)c2c1
Ki (APP Aβ40 fibrils; thioflavin T competition; added: preformed fibrils 5 µM, thioflavin T 2 µM; binding): 0.177 ± 0.015 µM

CC(C)(O)c1cc2c(ccc3c(=O)cc(-c4ccccc4)oc32)o1
IC50 (APP; amyloid aggregation, inhibitor, fluorescence): > 200 µM

Excerpt of the above:
CC(=O)N[C@H]1CC(=O)N[C@@H](Cc2ccccc2)C(=O)N[C@@H](CC(=O)O)C(=O)N[C@H](C(=O)N[C@@H](CCCNC(=N)N)C(=O)N[C@H](C(=O)N[C@@H](CCCNC(=N)N)C(=O)N[C@@H](C)C(=O)N[C@@H](CCC(=O)O)C(=O)N[C@@H](CCCNC(=N)N)C(=O)N[C@@H](C)C(=O)N[C@@H](CCC(=O)O)C(N)=O)C(C)C)CNC1=O
Kd (APP Aβ40 fibrils; isothermal titration calorimetry; sodium phosphate buffer; pH 8, 25 °C, peptide titrated into protein): 25.1 µM
